# Assay results collected from several papers.
# Lines come from different studies, so protocols differ. Numbers after ± are the reported error.
SMILES,test,system,setting,tissue uptake
O=C(NCC1OC2CCC=CCCC2O1)c1ccc(COCCOCCOCC[18F])cc1 (stereo not shown),,"healthy female BALB/c nude mice, liver","intravenous, 7.4 MBq per mouse, 30 min",4.5 ± 0.2 %ID/g
CCCC[C@H](NC(=O)CNC(=O)CNC(=O)[C@H](CCCCNC(=O)C(C)c1ccc(CC(C)C)cc1)NC(=O)CN1CCN(CC(=O)O)CCN(CC(=O)O)CCN(CC(=O)O)CC1)C(=O)N[C@H]1CC(=O)NCCCC[C@@H](C(N)=O)NC(=O)[C@H](Cc2c[nH]c3ccccc23)NC(=O)[C@H](CCCNC(=N)N)NC(=O)[C@@H](Cc2ccccc2)NC(=O)[C@H](Cc2c[nH]cn2)NC1=O (stereo partly shown) [lutetium-177 labelled],,"C57 mice, tumour-bearing, heart",2 h,0.8 ± 0.11 %ID/g
CC(C)C[C@H](NC(=O)[C@@H](CCCCNC(=O)[C@@H](Cc1ccccc1)NC(=O)CCCCCCCNC(=O)CN1CCN(CC(=O)O)CCN(CC(=O)O)CCN(CC(=O)O)CC1)NC(=O)[C@H](Cc1ccc(O)cc1)NC(=O)[C@H](CO)NC(=O)[C@H](Cc1c[nH]c2ccccc12)NC(=O)[C@H](Cc1c[nH]cn1)NC(=O)[C@@H]1CCC(=O)N1)C(=O)N[C@@H](CCCNC(=N)N)C(=O)N1CCC[C@H]1C(=O)NCC(N)=O [indium-111 labelled],biodistribution,"male athymic nude mice, DU-145 prostate cancer xenograft, muscle","intravenous, 0.037 MBq, 0.5 h post-injection",0.53 ± 0.1 %ID/g
O=C([O-])CN1CCN(CC(=O)[O-])CCN(CC(=O)NC[C@H]2CC[C@H](C(=O)N[C@H](Cc3cnc4ccccc4c3)C(=O)NCCCC[C@H](NC(=O)N[C@@H](CCC(=O)O)C(=O)O)C(=O)O)CC2)CCN(CC(=O)[O-])CC1.[64Cu+2],ex vivo gamma counting,"22Rv1 tumour-bearing mice, brain","intravenous, 0.74 MBq, 2 h post-injection",0.4 %ID/g
COc1ccc(Nc2nc(Nc3ccc(OCCOCCOCC[18F])cc3)ncc2Br)cc1,,"ICR mice, S180 tumour-bearing, bone","intravenous, 370 kBq, 15 min",2.57 ± 0.03 %ID/g
N#C[C@@H]1CCCN1C(=O)CNC(=O)c1ccnc2ccc(OCCCN3CCN(C(=O)CCc4ccc(O)c(CN5CCN6CC(=O)[O][Al-]([18F])([O]C(=O)C5)[O]c5ccc(CCC(=O)N7CCN(CCCOc8ccc9nccc(C(=O)NCC(=O)N%10CCC[C@H]%10C#N)c9c8)CC7)cc5C6)c4)CC3)cc12 (stereo partly shown),,"BALB/c nude mice, U-87 MG xenograft, spleen",1 h,1.37 ± 0.35 %ID/g
CCCC[C@H](NC(=O)COCCOCCNC(=O)CN1CCN(CC(=O)O)CCN(CC(=O)O)CC1)C(=O)N[C@H]1CC(=O)NCCCC[C@@H](C(N)=O)NC(=O)[C@H](Cc2c[nH]c3ccccc23)NC(=O)[C@H](CCCNC(=N)N)NC(=O)[C@@H](Cc2ccccc2)NC(=O)[C@H](Cc2c[nH]cn2)NC1=O [fluorine-18 labelled],,"C57 mice, B16/F10 melanoma, intestines","intravenous, 0.37 MBq, 2 h",0.78 ± 0.14 %ID
Cc1cc(C)n(CCN(CCN)CCCCCCNC(=O)[C@@H](N)Cc2c[nH]cn2)n1.[99Tc+].[C-]#[O+].[C-]#[O+].[C-]#[O+],,"BALB/c nude mice, A549 xenograft, brain","intravenous, 15 min",0.13 ± 0.01 %IA/g
COc1ccc(Nc2nc(Nc3ccc(OCCOCC[18F])cc3)ncc2Br)cc1,,"ICR mice, S180 tumour-bearing, bone","intravenous, 370 kBq, 15 min",3.3 ± 0.52 %ID/g
CCCC[C@H](NC(=O)CCCCCCCNC(=O)CN1CCN(CC(=O)O)CCN(CC(=O)O)CC1)C(=O)N[C@H]1CC(=O)NCCCC[C@@H](C(N)=O)NC(=O)[C@H](Cc2c[nH]c3ccccc23)NC(=O)[C@H](CCCNC(=N)N)NC(=O)[C@@H](Cc2ccccc2)NC(=O)[C@H](Cc2c[nH]cn2)NC1=O [fluorine-18 labelled],,"C57 mice, B16/F10 melanoma, bone","intravenous, 1 h, added: NDP-MSH 10 µg",0.94 ± 0.3 %ID/g
O=C(NCC1OC2CCC=CCCC2O1)c1ccc([18F])nc1 (stereo not shown),,"healthy female BALB/c nude mice, spleen","intravenous, 7.4 MBq per mouse, 60 min",1.3 ± 0.1 %ID/g
CCCC[C@H](NC(=O)CNC(=O)CNC(=O)[C@H](CCCCNC(=O)[C@H](CC(=O)O)NC(=O)C(C)c1ccc(CC(C)C)cc1)NC(=O)CN1CCN(CC(=O)O)CCN(CC(=O)O)CCN(CC(=O)O)CC1)C(=O)N[C@H]1CC(=O)NCCCC[C@@H](C(N)=O)NC(=O)[C@H](Cc2c[nH]c3ccccc23)NC(=O)[C@H](CCCNC(=N)N)NC(=O)[C@@H](Cc2ccccc2)NC(=O)[C@H](Cc2c[nH]cn2)NC1=O (stereo partly shown) [lutetium-177 labelled],,"C57 mice, tumour-bearing, spleen",2 h,0.36 ± 0.09 %ID/g
Cc1cc(C)n(CCN(CCN)CCCCCCNC(=O)[C@@H](N)Cc2c[nH]c3ccccc23)n1.[99Tc+].[C-]#[O+].[C-]#[O+].[C-]#[O+],,"BALB/c nude mice A549 xenograft, blood","intravenous, 4 h",0.38 ± 0.22 %ID/g

# Repeated from above:
SMILES,test,system,setting,tissue uptake
CC(C)C[C@H](NC(=O)[C@@H](CCCCNC(=O)[C@@H](Cc1ccccc1)NC(=O)CCCCCCCNC(=O)CN1CCN(CC(=O)O)CCN(CC(=O)O)CCN(CC(=O)O)CC1)NC(=O)[C@H](Cc1ccc(O)cc1)NC(=O)[C@H](CO)NC(=O)[C@H](Cc1c[nH]c2ccccc12)NC(=O)[C@H](Cc1c[nH]cn1)NC(=O)[C@@H]1CCC(=O)N1)C(=O)N[C@@H](CCCNC(=N)N)C(=O)N1CCC[C@H]1C(=O)NCC(N)=O [indium-111 labelled],biodistribution,"male athymic nude mice, DU-145 prostate cancer xenograft, muscle","intravenous, 0.037 MBq, 0.5 h post-injection",0.53 ± 0.1 %ID/g
